Experimental data gathered from unrelated publications.
Protocols differ between the studies behind these lines.
Method: steady-state kinetics
B1: ycjS (Escherichia coli, UniProt P77503); chain MKSAMTSSPLRVAIIGAGQVADKVHASYYCTRNDLELVAVCDSRLSQAQALAEKYGNASVWDDPQAMLLAVKPDVVSVCSPNRFHYEHTLMALEAGCHVMCEKPPAMTPEQAREMCDTARKLGKVLAYDFHHRFALDTQQLREQVTNGVLGEIYVTTARALRRCGVPGWGVFTNKELQGGGPLIDIGIHMLDAAMYVLGFPAVKSVNAHSFQKIGTQKSCGQFGEWDPATYSVEDSLFGTIEFHNGGILWLETSFALNIREQSIMNVSFCGDKAGATLFPAHIYTDNNGELMTLMQREIADDNRHLRSMEAFINHVQGKPVMIADAEQGYIIQQLVAALYQSAETGTRVEL
B2: Mj-MAT W387F/Y85W (Methanocaldococcus jannaschii, UniProt Q58605); chain MRNIIVKKLDVEPIEERPTEIVERKGLGHPDSICDGIAESVSRALCKMYMEKFGTILHHNTDQVELVGGHAYPKFGGGVMVSPIWILLSGRATMEILDKEKNEVIKLPVGTTAVKAAKEYLKKVLRNVDVDKDVIIDCRIGQGSMDLVDVFERQKNEVPLANDTSFGVGYAPLSTTERLVLETERFLNSDELKNEIPAVGEDIKVMGLREGKKITLTIAMAVVDRYVKNIEEYKEVIEKVRKKVEDLAKKIADGYEVEIHINTADDYERESVYLTVTGTSAEMGDDGSVGRGNRVNGLITPFRPMSMEAASGKNPVNHVGKIYNILANLIANDIAKLEGVKECYVRILSQIGKPINEPKALDIEIITEDSYDIKDIEPKAKEIANKFLDNIMEVQKMIVEGKVTTF
B3: SULT1B1 E275K (Homo sapiens, UniProt O43704); chain MLSPKDILRKDLKLVHGYPMTCAFASNWEKIEQFHSRPDDIVIATYPKSGTTWVSEIIDMILNDGDIEKCKRGFITEKVPMLEMTLPGLRTSGIEQLEKNPSPRIVKTHLPTDLLPKSFWENNCKMIYLARNAKDVSVSYYHFDLMNNLQPFPGTWEEYLEKFLTGKVAYGSWFTHVKNWWKKKEEHPILFLYYEDMKENPKEEIKKIIRFLEKNLNDEILDRIIHHTSFEVMKDNPLVNYTHLPTTVMDHSKSPFMRKGTAGDWKNYFTVAQNKKFDAIYETEMSKTALQFRTEI
B4: MSS116 T307A (Saccharomyces cerevisiae, UniProt P15424); chain LYNDGNRDQRNFGRNQRNNNSNRYRNSRFNSRPRTRSREDDDEVHFDKTTFSKLIHVPKEDNSKEVTLDSLLEEGVLDKEIHKAITRMEFPGLTPVQQKTIKPILSSEDHDVIARAKTGTGKTFAFLIPIFQHLINTKFDSQYMVKAVIVAPTRDLALQIEAEVKKIHDMNYGLKKYACVSLVGGTDFRAAMNKMNKLRPNIVIATPGRLIDVLEKYSNKFFRFVDYKVLDEADRLLEIGFRDDLETISGILNEKNSKSADNIKTLLFSAALDDKVQKLANNIMNKKECLFLDTVDKNEPEAHERIDQSVVISEKFANSIFAAVEHIKKQIKERDSNYKAIIFAPTVKFTSFLCSILKNEFKKDLPILEFHGKITQNKRTSLVKRFKKDESGILVCTDVGARGMDFPNVHEVLQIGVPSELANYIHRIGRTARSGKEGSSVLFICKDELPFVRELEDAKNIVIAKQEKYEPSEEIKSEVLEAVTEEPEDISDIVISLISSYRSCIKEYRFSERRILPEIASTYGVLLNDPQLKIPVSRRFLDKLGLSRSPIGKAMFEIRDYSSRDGNNKSYDYDDDSEISFRGNKNYNNRSQNRDYDDEPFRRSNNNRRSFSRSNDKNNYSSRNSNIY
B5: PRXC1A (Armoracia rusticana, UniProt P00433); chain QLTPTFYDNSCPNVSNIVRDTIVNELRSDPRIAASILRLHFHDCFVNGCDASILLDNTTSFRTEKDAFGNANSARGFPVIDRMKAAVESACPRTVSCADLLTIAAQQSVTLAGGPSWRVPLGRRDSLQAFLDLANANLPAPFFTLPQLKDSFRNVGLNRSSDLVALSGGHTFGKNQCRFIMDRLYNFSNTGLPDPTLNTTYLQTLRGLCPLNGNLSALVDFDLRTPTIFDNKYYVNLEEQKGLIQSDQELFSSPNATDTIPLVRSFANSTQTFFNAFVEAMDRMGNITPLTGTQGQIRLNCRVVNSNS
Chain of UniProt J9VYP5 (whole entry, looked up): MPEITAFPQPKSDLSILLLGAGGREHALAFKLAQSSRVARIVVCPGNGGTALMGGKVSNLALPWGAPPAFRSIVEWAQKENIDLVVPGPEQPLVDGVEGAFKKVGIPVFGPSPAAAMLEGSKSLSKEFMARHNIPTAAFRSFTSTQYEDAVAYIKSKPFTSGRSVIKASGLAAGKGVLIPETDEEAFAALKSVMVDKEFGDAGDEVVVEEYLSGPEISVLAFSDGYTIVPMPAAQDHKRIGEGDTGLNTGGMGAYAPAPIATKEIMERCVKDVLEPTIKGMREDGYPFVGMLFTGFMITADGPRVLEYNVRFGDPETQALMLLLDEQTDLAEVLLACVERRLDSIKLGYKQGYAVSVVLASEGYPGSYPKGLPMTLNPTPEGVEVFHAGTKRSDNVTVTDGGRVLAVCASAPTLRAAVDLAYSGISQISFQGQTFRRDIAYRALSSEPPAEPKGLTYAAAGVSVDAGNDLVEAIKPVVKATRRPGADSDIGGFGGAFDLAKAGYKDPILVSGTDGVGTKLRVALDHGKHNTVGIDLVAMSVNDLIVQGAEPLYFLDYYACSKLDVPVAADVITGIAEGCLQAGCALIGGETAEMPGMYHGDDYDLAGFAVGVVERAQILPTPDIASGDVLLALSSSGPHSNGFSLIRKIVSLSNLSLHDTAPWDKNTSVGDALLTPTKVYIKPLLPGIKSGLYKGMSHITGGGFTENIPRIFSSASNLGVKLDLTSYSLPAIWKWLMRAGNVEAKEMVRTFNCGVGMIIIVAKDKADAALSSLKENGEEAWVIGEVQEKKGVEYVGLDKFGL
Chain of UniProt O87170 (whole entry, looked up): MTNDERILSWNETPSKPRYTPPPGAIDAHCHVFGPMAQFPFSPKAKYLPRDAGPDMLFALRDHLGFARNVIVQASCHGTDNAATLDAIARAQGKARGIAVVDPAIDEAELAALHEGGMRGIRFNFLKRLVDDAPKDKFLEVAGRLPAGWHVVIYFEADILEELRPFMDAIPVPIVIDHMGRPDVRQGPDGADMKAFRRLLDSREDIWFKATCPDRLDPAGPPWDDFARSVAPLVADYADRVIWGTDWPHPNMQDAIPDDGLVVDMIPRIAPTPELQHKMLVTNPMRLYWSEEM

Molecule	substrate	pH	temperature	notes	added	Km [µM]
DXS (Babesia bovis, UniProt V5KVW2)	CC(=O)C(=O)O	pH 7.5	37 °C	–	MgCl2 10 mM, thiamin diphosphate 2 mM, D,L-GAP	790
enzyme (Mus musculus, UniProt P08680)	CC(C)(COP(=O)(O)OP(=O)(O)OC[C@H]1O[C@@H](n2cnc3c(N)ncnc32)[C@H](O)[C@@H]1OP(=O)(O)O)[C@@H](O)C(=O)NCCC(=O)NCCSC(=O)CCC(=O)O	pH 7.5	37 °C	–	–	1
GAR synthetase (Cryptococcus neoformans, UniProt J9VYP5)	NCC(=O)O	pH 8	37 °C	apparent	–	364
HCT (Coleus scutellarioides, UniProt E8ZAP2)	O=C(O)C1=C[C@@H](O)[C@@H](O)[C@H](O)C1	pH 8	–	pseudo-first-order	p-coumaroyl CoA	388
LigI (Sphingobium sp. SYK-6, UniProt O87170)	O=C(O)/C=C(\CC(=O)C(=O)O)C(=O)O	pH 8.25	30 °C	reverse reaction, tautomer mixture	–	18
B1 (ycjS)	CO[C@H]1O[C@H](CO)[C@@H](O)[C@H](O)[C@H]1O	pH 8	30 °C	–	NAD+ 2.0 mM	5600
B2 (Mj-MAT W387F/Y85W)	CSCC[C@H](N)C(=O)O	–	55 °C	–	ATP 2.5 mM, methionine 0.05-1 mM	570
B3 (SULT1B1 E275K)	Nc1ncnc2c1ncn2[C@@H]1O[C@H](COP(=O)(O)OS(=O)(=O)O)[C@@H](OP(=O)(O)O)[C@H]1O	pH 7.4	37 °C	unpaired subunit	1-naphthol	1.58
B4 (MSS116 T307A)	Nc1ncnc2c1ncn2[C@@H]1O[C@H](COP(=O)(O)OP(=O)(O)OP(=O)(O)O)[C@@H](O)[C@H]1O	pH 7.5	37 °C	–	ATP	165
B5 (PRXC1A)	CCn1c(=NN=c2sc3cc(S(=O)(=O)O)ccc3n2CC)sc2cc(S(=O)(=O)O)ccc21	pH 7	25 °C	apparent	–	960
α-amino ester hydrolase (Xanthomonas campestris, UniProt Q8P8K4)	COC(=O)[C@H](N)c1ccccc1	pH 7	25 °C	phosphate 100 mM	–	3700

A few entries again:
Molecule	substrate	pH	temperature	notes	added	Km [µM]
B3 (SULT1B1 E275K)	Nc1ncnc2c1ncn2[C@@H]1O[C@H](COP(=O)(O)OS(=O)(=O)O)[C@@H](OP(=O)(O)O)[C@H]1O	pH 7.4	37 °C	unpaired subunit	1-naphthol	1.58
B4 (MSS116 T307A)	Nc1ncnc2c1ncn2[C@@H]1O[C@H](COP(=O)(O)OP(=O)(O)OP(=O)(O)O)[C@@H](O)[C@H]1O	pH 7.5	37 °C	–	ATP	165
